Assay results from different studies.
± marks the error that the study gave.
IDO1: Indoleamine 2,3-dioxygenase 1 (IDO1, Homo sapiens, UniProt P14902)

Protein sequences, listed by entry. Tags and fused reporters are not part of them. Residues count along the entry.
UniProt Q6ZVD8, whole entry, looked up: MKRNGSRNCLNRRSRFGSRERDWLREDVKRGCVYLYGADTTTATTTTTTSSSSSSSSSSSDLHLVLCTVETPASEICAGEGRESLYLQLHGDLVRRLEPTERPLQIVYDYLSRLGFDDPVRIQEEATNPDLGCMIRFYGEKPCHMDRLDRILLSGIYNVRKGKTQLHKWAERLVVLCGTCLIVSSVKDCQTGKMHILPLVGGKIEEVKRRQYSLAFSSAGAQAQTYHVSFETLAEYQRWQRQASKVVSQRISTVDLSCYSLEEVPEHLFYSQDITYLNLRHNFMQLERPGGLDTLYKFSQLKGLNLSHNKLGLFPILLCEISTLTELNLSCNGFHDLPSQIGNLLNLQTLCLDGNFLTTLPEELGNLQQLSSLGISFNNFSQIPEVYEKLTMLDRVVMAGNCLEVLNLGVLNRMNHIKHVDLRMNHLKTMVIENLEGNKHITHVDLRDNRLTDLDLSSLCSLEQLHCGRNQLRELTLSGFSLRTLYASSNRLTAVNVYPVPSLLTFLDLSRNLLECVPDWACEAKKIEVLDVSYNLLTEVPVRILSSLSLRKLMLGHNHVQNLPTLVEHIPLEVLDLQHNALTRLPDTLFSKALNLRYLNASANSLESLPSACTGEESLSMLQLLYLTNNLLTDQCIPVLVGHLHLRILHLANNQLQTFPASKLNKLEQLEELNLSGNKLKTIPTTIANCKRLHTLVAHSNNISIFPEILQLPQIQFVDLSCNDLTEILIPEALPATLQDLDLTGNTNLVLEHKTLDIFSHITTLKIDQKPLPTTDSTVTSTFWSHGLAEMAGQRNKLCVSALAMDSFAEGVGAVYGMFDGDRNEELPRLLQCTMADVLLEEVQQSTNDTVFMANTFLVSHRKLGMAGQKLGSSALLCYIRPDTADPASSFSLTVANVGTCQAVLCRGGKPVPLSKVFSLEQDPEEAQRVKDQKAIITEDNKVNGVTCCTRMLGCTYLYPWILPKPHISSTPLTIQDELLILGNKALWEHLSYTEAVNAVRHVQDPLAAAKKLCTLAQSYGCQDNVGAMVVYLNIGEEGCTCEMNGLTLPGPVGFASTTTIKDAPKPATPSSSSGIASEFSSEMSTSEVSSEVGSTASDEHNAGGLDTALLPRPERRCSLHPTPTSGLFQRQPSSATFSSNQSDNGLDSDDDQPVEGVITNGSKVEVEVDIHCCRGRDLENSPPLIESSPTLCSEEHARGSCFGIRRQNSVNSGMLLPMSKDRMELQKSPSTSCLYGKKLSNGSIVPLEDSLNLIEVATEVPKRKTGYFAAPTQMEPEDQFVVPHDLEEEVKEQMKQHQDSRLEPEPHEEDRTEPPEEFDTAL
UniProt P31421, 19-872 limits assumed: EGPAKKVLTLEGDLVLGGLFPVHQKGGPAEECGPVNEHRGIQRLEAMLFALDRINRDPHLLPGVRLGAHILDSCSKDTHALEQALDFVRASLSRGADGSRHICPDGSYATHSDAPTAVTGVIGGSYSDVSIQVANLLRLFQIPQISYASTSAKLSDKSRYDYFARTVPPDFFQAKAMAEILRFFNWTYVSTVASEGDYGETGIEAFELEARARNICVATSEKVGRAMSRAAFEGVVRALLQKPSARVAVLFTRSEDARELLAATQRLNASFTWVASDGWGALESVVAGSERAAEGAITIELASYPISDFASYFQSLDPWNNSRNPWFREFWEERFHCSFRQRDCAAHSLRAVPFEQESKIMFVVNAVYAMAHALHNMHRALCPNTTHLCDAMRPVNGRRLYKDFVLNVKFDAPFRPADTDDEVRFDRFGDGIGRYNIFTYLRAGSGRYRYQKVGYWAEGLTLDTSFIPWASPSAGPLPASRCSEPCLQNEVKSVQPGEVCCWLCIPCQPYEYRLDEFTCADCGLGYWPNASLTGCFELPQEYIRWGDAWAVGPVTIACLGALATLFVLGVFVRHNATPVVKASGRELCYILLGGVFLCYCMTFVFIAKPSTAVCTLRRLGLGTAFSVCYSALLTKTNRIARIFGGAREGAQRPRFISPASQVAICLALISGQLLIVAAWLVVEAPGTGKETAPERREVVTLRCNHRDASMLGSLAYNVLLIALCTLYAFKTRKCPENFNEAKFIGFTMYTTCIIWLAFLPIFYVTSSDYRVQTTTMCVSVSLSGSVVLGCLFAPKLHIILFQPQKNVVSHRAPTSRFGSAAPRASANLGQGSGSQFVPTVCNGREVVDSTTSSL
UniProt Q9NR97, 27-1041 limits assumed: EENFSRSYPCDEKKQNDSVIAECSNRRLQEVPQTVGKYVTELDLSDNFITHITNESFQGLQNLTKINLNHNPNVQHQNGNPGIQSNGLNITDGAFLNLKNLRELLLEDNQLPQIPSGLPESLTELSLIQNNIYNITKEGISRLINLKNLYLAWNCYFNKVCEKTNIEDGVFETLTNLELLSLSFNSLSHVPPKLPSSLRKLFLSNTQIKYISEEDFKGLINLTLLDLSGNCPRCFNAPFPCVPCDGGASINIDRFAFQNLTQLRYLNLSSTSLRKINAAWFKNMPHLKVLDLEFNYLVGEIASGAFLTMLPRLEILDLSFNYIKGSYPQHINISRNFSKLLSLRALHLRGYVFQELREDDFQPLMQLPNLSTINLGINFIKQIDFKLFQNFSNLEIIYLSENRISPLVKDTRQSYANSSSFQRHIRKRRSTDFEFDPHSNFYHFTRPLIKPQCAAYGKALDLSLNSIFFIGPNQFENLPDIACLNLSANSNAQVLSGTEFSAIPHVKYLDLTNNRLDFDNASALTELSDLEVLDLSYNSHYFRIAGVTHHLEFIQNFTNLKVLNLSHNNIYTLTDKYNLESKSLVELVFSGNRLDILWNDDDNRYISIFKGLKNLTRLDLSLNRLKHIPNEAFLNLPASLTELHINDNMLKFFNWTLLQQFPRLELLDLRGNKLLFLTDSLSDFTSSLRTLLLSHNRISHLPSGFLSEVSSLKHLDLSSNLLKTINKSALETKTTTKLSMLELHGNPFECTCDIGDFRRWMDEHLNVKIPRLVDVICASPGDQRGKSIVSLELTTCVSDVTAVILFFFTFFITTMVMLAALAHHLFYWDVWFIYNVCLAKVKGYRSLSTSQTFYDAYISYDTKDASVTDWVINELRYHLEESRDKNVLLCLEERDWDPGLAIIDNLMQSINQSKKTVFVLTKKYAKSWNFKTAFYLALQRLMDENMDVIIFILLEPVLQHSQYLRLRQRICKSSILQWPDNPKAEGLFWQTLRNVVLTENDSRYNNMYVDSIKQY
UniProt P49841, whole entry: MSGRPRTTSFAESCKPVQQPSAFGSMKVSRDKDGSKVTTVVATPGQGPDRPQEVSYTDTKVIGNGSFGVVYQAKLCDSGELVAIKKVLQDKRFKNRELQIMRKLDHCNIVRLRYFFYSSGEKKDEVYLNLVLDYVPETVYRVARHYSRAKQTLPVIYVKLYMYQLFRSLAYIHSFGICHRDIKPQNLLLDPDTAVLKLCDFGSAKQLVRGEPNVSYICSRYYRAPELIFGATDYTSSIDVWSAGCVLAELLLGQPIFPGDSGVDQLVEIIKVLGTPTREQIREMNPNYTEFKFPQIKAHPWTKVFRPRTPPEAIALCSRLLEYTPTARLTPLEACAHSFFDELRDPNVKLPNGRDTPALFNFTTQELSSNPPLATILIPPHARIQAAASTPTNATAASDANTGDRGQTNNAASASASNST
UniProt Q00959, 23-1464 limits assumed: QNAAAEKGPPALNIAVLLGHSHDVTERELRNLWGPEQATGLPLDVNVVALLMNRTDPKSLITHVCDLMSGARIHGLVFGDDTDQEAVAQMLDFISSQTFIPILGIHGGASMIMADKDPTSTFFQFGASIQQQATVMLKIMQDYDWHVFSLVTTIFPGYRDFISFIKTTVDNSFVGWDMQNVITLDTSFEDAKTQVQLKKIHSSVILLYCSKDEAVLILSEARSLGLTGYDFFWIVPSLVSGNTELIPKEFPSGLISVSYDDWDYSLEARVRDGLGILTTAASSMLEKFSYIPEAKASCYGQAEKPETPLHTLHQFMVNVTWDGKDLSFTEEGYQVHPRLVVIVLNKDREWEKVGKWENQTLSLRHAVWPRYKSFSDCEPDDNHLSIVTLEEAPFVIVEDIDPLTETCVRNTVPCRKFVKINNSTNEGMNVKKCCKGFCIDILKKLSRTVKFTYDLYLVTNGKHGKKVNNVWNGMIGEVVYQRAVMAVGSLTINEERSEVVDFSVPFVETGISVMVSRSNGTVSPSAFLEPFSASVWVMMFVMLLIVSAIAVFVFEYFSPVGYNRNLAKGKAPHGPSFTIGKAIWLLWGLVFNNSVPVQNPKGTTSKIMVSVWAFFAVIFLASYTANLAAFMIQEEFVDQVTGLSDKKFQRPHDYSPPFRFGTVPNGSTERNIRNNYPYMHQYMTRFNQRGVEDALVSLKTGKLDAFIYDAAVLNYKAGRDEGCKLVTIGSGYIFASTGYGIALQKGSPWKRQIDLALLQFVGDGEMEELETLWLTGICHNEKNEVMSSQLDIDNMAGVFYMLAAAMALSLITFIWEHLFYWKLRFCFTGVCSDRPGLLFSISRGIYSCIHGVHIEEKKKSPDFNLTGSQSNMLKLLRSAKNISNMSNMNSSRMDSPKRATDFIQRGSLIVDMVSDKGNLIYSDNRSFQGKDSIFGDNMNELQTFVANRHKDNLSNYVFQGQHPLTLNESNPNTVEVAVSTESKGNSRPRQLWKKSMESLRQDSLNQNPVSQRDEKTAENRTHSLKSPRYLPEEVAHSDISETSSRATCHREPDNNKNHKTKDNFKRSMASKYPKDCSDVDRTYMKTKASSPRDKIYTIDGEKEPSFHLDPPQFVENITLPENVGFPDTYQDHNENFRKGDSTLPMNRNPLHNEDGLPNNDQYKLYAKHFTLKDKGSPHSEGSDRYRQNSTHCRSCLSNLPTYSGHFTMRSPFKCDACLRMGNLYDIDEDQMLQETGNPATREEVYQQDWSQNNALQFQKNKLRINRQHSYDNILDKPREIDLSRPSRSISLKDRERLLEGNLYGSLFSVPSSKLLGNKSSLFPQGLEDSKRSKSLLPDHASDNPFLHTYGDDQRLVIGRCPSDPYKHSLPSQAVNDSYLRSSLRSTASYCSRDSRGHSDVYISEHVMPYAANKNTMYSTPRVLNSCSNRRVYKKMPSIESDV
UniProt Q13304, whole entry: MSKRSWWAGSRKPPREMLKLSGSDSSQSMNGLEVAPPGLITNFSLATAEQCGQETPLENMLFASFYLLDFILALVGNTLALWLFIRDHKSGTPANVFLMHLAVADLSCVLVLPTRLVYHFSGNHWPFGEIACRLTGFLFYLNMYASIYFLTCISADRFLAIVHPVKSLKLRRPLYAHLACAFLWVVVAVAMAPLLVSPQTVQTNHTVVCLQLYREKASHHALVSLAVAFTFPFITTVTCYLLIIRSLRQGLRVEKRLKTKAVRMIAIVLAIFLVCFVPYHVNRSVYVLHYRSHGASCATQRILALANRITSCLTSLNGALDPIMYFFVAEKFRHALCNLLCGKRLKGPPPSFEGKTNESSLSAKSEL
UniProt P26038, whole entry, looked up: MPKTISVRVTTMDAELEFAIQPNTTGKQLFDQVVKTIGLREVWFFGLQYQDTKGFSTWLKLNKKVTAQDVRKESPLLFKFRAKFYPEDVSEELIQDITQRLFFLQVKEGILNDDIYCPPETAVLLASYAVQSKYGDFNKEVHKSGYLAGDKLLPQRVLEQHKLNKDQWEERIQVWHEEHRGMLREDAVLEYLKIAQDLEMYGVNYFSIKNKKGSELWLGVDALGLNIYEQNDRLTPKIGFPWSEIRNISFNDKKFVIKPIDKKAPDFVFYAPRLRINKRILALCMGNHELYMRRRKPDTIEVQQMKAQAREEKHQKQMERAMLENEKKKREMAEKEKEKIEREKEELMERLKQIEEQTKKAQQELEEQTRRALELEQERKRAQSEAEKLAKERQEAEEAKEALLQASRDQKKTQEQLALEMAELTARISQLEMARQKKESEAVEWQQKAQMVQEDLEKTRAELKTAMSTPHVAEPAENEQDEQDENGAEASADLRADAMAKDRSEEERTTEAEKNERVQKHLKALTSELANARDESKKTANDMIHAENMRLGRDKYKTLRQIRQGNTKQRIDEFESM
UniProt A0A381MCS3, 1-451: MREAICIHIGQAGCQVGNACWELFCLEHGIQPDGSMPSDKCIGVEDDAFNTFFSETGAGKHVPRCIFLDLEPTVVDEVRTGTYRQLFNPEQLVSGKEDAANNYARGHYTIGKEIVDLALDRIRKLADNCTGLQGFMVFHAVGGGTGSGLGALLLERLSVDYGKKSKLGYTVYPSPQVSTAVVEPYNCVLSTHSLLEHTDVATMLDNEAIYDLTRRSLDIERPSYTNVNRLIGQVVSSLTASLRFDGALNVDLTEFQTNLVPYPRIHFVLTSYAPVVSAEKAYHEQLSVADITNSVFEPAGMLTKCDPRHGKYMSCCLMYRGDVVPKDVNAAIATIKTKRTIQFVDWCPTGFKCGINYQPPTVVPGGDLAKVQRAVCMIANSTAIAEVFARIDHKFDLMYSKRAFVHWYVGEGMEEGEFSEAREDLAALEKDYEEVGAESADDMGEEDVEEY

For NS(=O)(=O)c1ccc(Cc2c(-c3ccc(F)c(C#CC4CC4)c3)nn(-c3nc(C(=O)O)cs3)c2CC2CC2)cc1F, the IC50 was 0.007 µM (LDHA (Homo sapiens, UniProt P00338); enzyme activity, inhibitor).
With CC(=O)Nc1ccc(/C=C/c2c[nH]c3ccc(C#N)cc23)cc1 the IC50 was 5.2 µM (IDO1; enzyme activity, inhibitor).
With Nc1c(S(=O)(=O)O)cc(Br)c2c1C(=O)c1ccccc1C2=O the IC50 was 5.22 ± 0.08 µM (PH domain leucine-rich repeat-containing protein phosphatase 2 (Homo sapiens, UniProt Q6ZVD8); enzyme activity, inhibitor).
Cc1ncc(CN(C)c2ccc3c(c2)c(=O)c(C(N)=O)cn3-c2ccc(F)cc2)cn1 has an IC50 of 0.147 µM (Grm2 (Rattus norvegicus, UniProt P31421); calcium mobilization, negative allosteric modulator).
For O=C(N1CCN(c2ccc([N+](=O)[O-])c3ncccc23)CC1)C12CC3CC(CC(O)(C3)C1)C2, the IC50 was 1.47 ± 0.45 µM (TLR8 (Homo sapiens, UniProt Q9NR97); reporter gene, inhibitor, SEAP reporter; HEK-Blue TLR8).
The IC50 of CCn1c(-c2cc(NC(=O)c3cnccn3)n[nH]2)cc2ccccc21 is reported as 21 ± 0.44 µM (GSK3B (Homo sapiens, UniProt P49841); enzyme activity, inhibitor).
For CCOc1ccc(S(=O)(=O)NC(=O)Cc2ccc(SC)cc2)cc1Br, the IC50 was 5.59 µM (CGAS (Homo sapiens, UniProt Q8N884); enzyme activity, inhibitor, Kinase-Glo ATP depletion; 25 °C, 100 nM enzyme).
The IC50 of COc1ccc2[nH]cc(/C=C/c3ccc([N+](=O)[O-])cc3F)c2c1 is reported as over 100 µM (IDO1; enzyme activity, inhibitor).
With O=C(O)CC[C@H](NC(=O)c1cc(C(=O)O)cc([C@H]2CCN[C@@H]2C(=O)O)c1)C(=O)O the IC50 was 0.61 ± 0.06 µM (Glutamate receptor ionotropic, NMDA 2A, with GluN1 (Grin2a, Rattus norvegicus, UniProt Q00959); ion current, antagonist, two-electrode voltage clamp; Xenopus oocytes; GluN1/GluN2A, added: glycine 100 µM and glutamate 1 µM).
Cc1ncsc1-c1ccc(CNC(=O)[C@@H]2C[C@@H](O)CN2C(=O)c2cccc(O)c2)cc1 has an IC50 of 3.71 ± 0.03 µM (von Hippel-Lindau disease tumor suppressor, with elongin B, C (VHL, Homo sapiens, UniProt P40337); binding, fluorescence polarization; 1% DMSO, added: FAM-HIF1α peptide tracer).
O=C(Nc1ccc(Cl)cc1)C(NS(=O)(=O)c1cccs1)c1ccccc1F (stereo not shown) gave an IC50 of 17 ± 1.38 µM (Uracil nucleotide/cysteinyl leukotriene receptor, long isoform (GPR17, Homo sapiens, UniProt Q13304); calcium mobilization, antagonist; 1321-N1).
For O=C(Nc1ccc(-c2nc3ccc(NC(=O)C4CCOCC4)cc3s2)cc1)C1CCOCC1, the IC50 was over 20 µM (Moesin, with CD44 (Homo sapiens, UniProt P26038); MSN-CD44 interaction, inhibitor, TR-FRET; added: CD44).
For CC(C)n1nnc(-c2cc(O)cc(Nc3ncnn4ccc(CN5CCC(N)CC5)c34)c2)n1, the IC50 was 0.0038 µM (AAK1 (Homo sapiens, UniProt Q2M2I8)).
With C[C@@H]1CN(C2CCC2)CC[C@H](O[C@H]2[C@@H](O)C[C@H](O[C@H]3[C@@H](O)C[C@H](O[C@H]4CC[C@@]5(C)[C@H](CC[C@@H]6[C@@H]5C[C@@H](O)[C@]5(C)[C@@H](C7=CC(=O)OC7)CC[C@]65O)C4)O[C@@H]3C)O[C@@H]2C)O1 the IC50 was 0.134 ± 0.01 µM (Sodium/potassium-transporting ATPase subunit alpha-1, with beta1 subunit (ATP1A1, Homo sapiens, UniProt P05023); Na+/K+-ATPase activity, inhibitor; purified human α1β1).
For NCCOCCOCCNC(=O)[C@@H]1CCCCNC(=O)[C@H](Cc2ccc([N+](=O)[O-])cc2)NC(=O)[C@H](CC2CCCCC2)NC(=O)C[C@H](O)[C@H](CC2CCCCC2)NC(=O)/C=C\C(=O)N1, the IC50 was 3.1 µM (MAP kinase-activated protein kinase 2, with p38alpha (MAPKAPK2, Homo sapiens, UniProt P49137); inhibitor, Z'-LYTE; p38α-MAPKAPK2 kinase cascade).
The IC50 of C[C@@H](CC(=O)NCc1cccc2ccccc12)NC(=O)[C@H](CC(=O)NC(C)(C)C)NC(=O)OC(C)(C)C is reported as over 100 µM (Proteasome component C5/PSMB5 (Homo sapiens, UniProt P20618+P28074); enzyme activity, inhibitor; added: suc-LLVY-AMC).
With Cc1ccc(NC(=O)c2cc3ccccc3c(N=Nc3ccccc3O)c2O)c(C)c1 the IC50 was 13.8 µM (Bcl-2-related protein A1 (Mus musculus, UniProt Q07440, C113S/P104K); binding, fluorescence polarization; added: FITC-Noxa peptide).
With COC(=O)[C@@H]1C(C=Nc2nccs2)=Cc2cc3c(cc2[C@H]1c1cc(OC)c(OC)c(OC)c1)OCO3 the IC50 was 9 ± 0.8 µM (Tubulin alpha/beta heterodimer (Leishmania infantum, UniProt A0A381MCS3+A4HTR0); tubulin polymerization, inhibitor; 37 °C, added: tubulin 1.2 mg/mL).
The IC50 of O=C(CCCCCn1c(=S)[nH]c2ccccc2c1=O)N1CCN(c2ccc(C(F)(F)F)cc2)CC1 is reported as 4.4 µM (Estrogen receptor (ESR1, Homo sapiens, UniProt P03372); reporter gene, antagonist; HEC-1 cells transfected with ERα; added: estradiol 1 nM).
